Results collected from several papers.
Parts stem from different laboratories: compare values within a part only. Changes are numbered by the printed parent chain.

Set 1
Target: TAR DNA-binding protein 43, full length, His tag (TARDBP, Homo sapiens, UniProt Q13148, residues 1-414)
Technique: RNA Bind-n-Seq
Form: RNA
Matrix: in vitro
Tested at: 20 nM
Notes: 6-mer, flanks averaged, single round
Together with: 150 mM LiCl
Reference: input library
Direction: higher = stronger binding
Under “6-mer enrichment (R)”, `CCGGCG` is recorded as 0.96.
`UUUAUC`: “6-mer enrichment (R)” 1.06.
`AUUGCU` — result for “6-mer enrichment (R)”: 0.926.
For `AAGUUA`, “6-mer enrichment (R)” read 0.911.
Under “6-mer enrichment (R)”, `UGAAGA` is recorded as 0.938.
`UGACUU`: “6-mer enrichment (R)” 0.902.
For `UUAUUU`, “6-mer enrichment (R)” read 1.35.
For `ACUUCU`, “6-mer enrichment (R)” read 0.863.

Set 2
Target: CREBZF, bZIP domain (human)
Technique: DHFR protein complementation
Matrix: yeast
Notes: single substitutions, most at no-binding floor
Reference: wild-type JUN-FOS pair
Direction: higher = stronger binding
Starting sequence: JUN, bZIP domain (human); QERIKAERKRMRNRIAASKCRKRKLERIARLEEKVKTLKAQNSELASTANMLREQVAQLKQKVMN; partner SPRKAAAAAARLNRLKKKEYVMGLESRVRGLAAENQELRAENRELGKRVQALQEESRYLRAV
`A57M` has a binding fitness of -1.37 natural log.
The binding fitness of `A29S` is reported as -1.38 natural log.
`Q41G` has a binding fitness of -1.55 natural log.
`M51E` has a binding fitness of -1.5 natural log.
The binding fitness of `A46H` is reported as -1.5 natural log.
With `R30S` the binding fitness was -1.28 natural log.
With `T37H` the binding fitness was -1.5 natural log.
`S43I` has a binding fitness of -1.45 natural log.

Set 3
Target: RING finger protein unkempt homolog, zinc fingers 1-6, GST-SBP tag (UNK, Homo sapiens, UniProt Q9C0B0, residues 30-357)
Sequence of UniProt Q9C0B0 (30-357, looked up): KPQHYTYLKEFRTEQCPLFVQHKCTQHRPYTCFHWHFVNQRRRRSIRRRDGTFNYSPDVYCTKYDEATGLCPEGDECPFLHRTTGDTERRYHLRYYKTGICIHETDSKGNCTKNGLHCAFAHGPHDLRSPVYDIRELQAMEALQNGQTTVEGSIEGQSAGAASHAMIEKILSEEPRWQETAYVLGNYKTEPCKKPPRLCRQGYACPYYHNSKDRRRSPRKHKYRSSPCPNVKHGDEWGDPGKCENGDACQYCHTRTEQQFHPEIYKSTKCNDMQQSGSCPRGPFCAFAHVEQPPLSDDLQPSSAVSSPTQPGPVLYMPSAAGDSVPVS
Technique: RNA Bind-n-Seq
Form: RNA
Matrix: in vitro
Tested at: not given
Notes: RNA with constant flanks, ends assumed
Reference: input RNA pool
Direction: higher = stronger binding
With `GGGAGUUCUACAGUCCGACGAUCUUUCACAUUUGGUGAGUGGGGCAGCAUUUCCUUCUCCCACUGCUGCUGAGAUGGCAGAAAUCCGUCGAAUUCAGUAUGAAAUGGAAUACACCGAAGGUAUUAGUCAGCGAAUGAGGGUCCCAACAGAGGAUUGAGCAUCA` the bound/input enrichment was 0.28 ratio.
`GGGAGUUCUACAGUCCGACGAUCGCAGAGAUGGAGAACAUUAAGGCAAUUGCCACAGUCUCUGAGAAUACUAAGCAAGAAGCUACCGAUGAAGUUAAAAGGCAAUGGAGAGAAGAAGUUGCUUCACUUCAGGCUAUAAUGAAACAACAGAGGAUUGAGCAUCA` has a bound/input enrichment of 0.155 ratio.
`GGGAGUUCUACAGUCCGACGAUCCUGCGAAGACAGCUGGCAGAACUCAACAAAAAUCCAGUGGAAGGCUUUUCAGCAGGUUUAACCGACGACAAUGAUCUCUAUCGUUGGGAAGUCCUUAUUAUUGGUCCUCCAGAUACACUUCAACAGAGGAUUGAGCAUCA` has a bound/input enrichment of 0.109 ratio.
For `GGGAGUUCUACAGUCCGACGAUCACUGAUUUAUAUGAUAUAAAACGUGCAGUGGUUCACACCCAUCUUCUUAACCCUGAGUGGUCCGUCAACUACUUUGGUUCCUUAUCAGUAGAAGACUCCCUAGAAUGUCUCAGAGCCAUGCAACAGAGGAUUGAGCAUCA`, the bound/input enrichment was 0.254 ratio.
`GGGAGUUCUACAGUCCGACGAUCACUGAAAAUAAAGAUAUUUAUUGGAAAAAUGUGAGAGAGAAGUUGUCAGCAGGAGAGAGCAUCCGUUUGGAUGAAUUCAAGUCAUUUUGCCAUUUUACAACCCACUUGGAAGACUUUGCUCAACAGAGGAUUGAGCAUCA` has a bound/input enrichment of 0.278 ratio.
With `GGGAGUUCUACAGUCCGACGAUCACCUCUCUAGUAUGUUCUGUGACUCUGCUCAUUACAAUCCUGUGCUCUACAUUGAUCCUUGCCGCAGUUUUCAAAUAUGGCCAUUUUUCCCUAUAAGUUUUAUGUAGUUAAAUGCUUCCUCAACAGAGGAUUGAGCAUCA` the bound/input enrichment was 3.98 ratio.
`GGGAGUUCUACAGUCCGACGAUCGGUAAGACUGAGGCACCAGUGAGUGAGCAAACCACUUUAGGCCAGGAGAAUUACAUAUUCUCCCGAGGCCAAGCAUCUGAUGAAAAGAGCCUGCCUAGAGAUUUUAUUCCGGCAGCACAUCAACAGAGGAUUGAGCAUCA` gave a bound/input enrichment of 0.136 ratio.
`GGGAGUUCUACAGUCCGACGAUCUCCACACAGAAGCACAAUUUUGUCCUCUUCCAGACACUGUUGCCUCUACCUAGUUAGACAAACCGGAUUUGACCUACAUUCUGUUGCCCCUAGGUUUGUGUUAGUGUCAGAAAUACUUAACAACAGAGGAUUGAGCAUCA` gave a bound/input enrichment of 1.18 ratio.

Further values, each from its own experiment
Starting sequence: viral docking peptide; PGASRRLFGSSAD
`L7A`: “normalised enrichment score” 0.115 (CCND2, cyclin fold, Cln2 fusion (human); yeast growth competition, sequencing; yeast; weak parent motif; reference: not given, higher = stronger binding).

Excerpt of the above (set 3):
For `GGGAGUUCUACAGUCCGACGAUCACUGAUUUAUAUGAUAUAAAACGUGCAGUGGUUCACACCCAUCUUCUUAACCCUGAGUGGUCCGUCAACUACUUUGGUUCCUUAUCAGUAGAAGACUCCCUAGAAUGUCUCAGAGCCAUGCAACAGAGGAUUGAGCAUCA`, the bound/input enrichment was 0.254 ratio.
`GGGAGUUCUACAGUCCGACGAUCACUGAAAAUAAAGAUAUUUAUUGGAAAAAUGUGAGAGAGAAGUUGUCAGCAGGAGAGAGCAUCCGUUUGGAUGAAUUCAAGUCAUUUUGCCAUUUUACAACCCACUUGGAAGACUUUGCUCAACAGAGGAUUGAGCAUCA` has a bound/input enrichment of 0.278 ratio.
